# Results of several laboratories.
# Each numbered part is a random draw from the data of one study; scales do not carry over between parts.
# UniProt P08581, sequence (whole entry, looked up): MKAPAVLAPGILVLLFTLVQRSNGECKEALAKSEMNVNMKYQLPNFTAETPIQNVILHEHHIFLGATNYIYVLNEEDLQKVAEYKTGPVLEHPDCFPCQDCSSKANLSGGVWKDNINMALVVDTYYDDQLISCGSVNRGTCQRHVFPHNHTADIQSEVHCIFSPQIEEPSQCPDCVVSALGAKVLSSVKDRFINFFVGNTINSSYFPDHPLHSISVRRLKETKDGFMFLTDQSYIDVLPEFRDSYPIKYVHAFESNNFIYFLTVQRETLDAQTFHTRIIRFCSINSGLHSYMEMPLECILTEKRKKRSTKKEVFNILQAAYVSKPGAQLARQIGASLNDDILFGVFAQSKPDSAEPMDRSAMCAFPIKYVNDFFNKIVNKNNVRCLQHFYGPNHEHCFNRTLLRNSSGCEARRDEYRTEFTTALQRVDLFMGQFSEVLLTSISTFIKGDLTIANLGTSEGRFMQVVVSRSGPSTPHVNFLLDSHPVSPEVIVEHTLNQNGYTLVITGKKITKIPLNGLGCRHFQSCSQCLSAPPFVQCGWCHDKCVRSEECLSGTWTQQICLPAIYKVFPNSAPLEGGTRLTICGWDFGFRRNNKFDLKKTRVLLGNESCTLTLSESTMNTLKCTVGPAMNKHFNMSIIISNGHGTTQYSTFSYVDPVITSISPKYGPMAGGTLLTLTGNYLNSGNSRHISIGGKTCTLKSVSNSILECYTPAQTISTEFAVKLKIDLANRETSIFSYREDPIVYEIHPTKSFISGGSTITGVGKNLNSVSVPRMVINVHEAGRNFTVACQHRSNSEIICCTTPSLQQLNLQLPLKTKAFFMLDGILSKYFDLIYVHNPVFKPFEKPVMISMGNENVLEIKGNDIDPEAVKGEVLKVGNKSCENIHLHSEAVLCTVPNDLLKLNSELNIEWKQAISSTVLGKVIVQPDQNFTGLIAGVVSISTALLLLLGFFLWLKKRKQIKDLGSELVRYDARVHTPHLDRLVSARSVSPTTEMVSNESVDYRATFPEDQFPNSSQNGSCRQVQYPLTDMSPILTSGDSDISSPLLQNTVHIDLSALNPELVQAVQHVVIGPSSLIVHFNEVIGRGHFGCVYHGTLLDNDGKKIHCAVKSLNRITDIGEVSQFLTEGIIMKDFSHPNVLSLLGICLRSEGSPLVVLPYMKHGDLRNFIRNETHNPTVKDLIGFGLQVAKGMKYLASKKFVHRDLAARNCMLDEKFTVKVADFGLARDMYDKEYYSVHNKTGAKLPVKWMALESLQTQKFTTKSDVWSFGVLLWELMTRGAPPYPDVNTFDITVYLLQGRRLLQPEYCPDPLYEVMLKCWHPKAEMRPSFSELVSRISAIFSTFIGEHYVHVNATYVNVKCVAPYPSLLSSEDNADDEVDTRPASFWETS
# UniProt Q13043, sequence (whole entry, looked up): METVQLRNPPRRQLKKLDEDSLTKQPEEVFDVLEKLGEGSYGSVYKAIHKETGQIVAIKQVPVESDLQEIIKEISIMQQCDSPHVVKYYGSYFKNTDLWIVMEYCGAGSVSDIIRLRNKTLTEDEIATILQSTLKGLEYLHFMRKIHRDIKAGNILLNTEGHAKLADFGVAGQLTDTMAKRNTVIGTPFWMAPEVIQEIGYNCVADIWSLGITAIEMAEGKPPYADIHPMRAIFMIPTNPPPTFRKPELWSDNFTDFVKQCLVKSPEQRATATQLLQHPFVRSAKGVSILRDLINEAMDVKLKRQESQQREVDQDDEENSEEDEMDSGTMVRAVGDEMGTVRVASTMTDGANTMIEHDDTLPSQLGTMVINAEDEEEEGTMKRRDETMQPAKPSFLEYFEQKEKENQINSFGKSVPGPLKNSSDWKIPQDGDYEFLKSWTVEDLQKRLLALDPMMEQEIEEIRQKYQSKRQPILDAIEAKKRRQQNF
# UniProt P50613, sequence (whole entry, looked up): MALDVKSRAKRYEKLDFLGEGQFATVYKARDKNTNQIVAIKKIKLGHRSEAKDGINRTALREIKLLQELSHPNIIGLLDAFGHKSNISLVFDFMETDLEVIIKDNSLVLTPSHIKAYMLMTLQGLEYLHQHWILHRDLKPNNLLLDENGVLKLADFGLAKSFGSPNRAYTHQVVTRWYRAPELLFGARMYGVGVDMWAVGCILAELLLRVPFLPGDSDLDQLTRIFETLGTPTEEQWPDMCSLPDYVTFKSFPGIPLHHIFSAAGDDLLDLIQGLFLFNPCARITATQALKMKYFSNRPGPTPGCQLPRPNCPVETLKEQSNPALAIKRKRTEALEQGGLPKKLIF
# UniProt Q9NYY3, sequence (whole entry, looked up): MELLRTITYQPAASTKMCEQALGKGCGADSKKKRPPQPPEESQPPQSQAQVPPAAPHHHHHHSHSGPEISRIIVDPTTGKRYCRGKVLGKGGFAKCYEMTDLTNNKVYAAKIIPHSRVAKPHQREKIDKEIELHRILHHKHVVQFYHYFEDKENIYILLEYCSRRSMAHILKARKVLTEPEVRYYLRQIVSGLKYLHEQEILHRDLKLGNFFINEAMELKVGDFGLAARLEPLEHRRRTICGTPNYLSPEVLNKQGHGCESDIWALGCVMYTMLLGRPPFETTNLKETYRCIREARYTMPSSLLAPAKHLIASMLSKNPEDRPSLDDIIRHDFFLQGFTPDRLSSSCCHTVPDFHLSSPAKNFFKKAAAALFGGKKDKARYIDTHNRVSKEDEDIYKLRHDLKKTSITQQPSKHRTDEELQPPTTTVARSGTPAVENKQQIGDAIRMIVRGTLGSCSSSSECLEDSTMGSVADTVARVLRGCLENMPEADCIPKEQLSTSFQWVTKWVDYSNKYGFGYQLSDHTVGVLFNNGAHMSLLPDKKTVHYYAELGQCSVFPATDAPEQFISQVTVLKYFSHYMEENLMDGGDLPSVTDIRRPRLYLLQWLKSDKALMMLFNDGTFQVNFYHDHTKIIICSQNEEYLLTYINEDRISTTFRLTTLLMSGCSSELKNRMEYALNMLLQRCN
# UniProt P42336, sequence (whole entry, unmodified, looked up): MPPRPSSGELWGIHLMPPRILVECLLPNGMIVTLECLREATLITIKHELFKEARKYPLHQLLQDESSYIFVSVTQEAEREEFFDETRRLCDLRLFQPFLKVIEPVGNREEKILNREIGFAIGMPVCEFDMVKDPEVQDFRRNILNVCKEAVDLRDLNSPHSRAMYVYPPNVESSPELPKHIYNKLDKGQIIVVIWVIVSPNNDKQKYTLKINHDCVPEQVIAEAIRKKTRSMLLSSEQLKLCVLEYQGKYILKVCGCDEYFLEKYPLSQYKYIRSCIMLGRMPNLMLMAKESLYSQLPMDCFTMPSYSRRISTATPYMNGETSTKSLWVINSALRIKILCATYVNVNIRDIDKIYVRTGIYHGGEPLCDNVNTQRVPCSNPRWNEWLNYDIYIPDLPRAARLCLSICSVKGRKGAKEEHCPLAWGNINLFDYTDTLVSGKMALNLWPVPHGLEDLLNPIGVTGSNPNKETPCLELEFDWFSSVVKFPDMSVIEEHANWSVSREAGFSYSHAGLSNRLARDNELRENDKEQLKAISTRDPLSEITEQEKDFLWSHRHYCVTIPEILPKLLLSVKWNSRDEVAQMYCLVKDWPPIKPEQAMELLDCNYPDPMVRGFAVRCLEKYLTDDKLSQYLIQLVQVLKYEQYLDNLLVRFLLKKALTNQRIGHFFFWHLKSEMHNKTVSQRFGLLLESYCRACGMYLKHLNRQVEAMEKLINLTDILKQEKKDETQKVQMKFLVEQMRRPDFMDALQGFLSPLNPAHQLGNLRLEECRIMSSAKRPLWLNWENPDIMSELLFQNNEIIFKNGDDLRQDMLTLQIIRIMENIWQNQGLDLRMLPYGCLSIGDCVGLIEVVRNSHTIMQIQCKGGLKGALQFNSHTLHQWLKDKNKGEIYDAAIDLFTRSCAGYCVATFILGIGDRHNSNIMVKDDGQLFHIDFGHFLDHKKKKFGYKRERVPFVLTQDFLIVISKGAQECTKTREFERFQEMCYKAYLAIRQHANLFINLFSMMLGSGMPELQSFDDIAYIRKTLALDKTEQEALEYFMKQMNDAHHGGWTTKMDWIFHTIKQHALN
# UniProt P31751, sequence (whole entry, looked up): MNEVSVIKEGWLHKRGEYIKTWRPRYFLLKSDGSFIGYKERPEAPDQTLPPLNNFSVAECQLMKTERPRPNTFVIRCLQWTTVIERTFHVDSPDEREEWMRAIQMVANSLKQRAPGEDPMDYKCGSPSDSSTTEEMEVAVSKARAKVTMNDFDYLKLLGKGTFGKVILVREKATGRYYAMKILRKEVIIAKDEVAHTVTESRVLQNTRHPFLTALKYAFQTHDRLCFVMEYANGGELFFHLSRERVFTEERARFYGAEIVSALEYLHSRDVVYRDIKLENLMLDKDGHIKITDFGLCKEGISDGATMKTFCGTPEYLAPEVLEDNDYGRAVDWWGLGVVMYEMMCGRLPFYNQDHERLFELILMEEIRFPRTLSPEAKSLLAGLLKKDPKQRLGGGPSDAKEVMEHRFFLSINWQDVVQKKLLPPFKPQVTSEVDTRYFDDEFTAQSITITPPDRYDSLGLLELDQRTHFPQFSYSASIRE
# UniProt Q13177, sequence (whole entry, looked up): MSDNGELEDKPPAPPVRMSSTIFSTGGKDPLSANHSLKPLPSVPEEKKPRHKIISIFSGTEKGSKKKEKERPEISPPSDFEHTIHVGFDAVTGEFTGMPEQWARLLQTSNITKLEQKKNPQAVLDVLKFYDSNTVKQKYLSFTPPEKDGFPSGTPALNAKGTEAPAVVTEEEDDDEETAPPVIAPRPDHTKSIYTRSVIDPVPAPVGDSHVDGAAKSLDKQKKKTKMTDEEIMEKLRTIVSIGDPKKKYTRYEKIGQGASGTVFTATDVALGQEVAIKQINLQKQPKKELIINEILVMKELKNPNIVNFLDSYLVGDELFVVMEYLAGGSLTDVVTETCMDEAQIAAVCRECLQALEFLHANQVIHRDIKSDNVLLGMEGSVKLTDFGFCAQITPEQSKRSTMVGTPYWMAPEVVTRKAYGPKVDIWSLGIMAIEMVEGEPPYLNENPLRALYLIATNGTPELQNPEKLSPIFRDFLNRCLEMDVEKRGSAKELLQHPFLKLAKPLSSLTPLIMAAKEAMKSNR

# Set 1
# Organism: Sarcocystis neurona
# Observed: parasite growth
# Concentration: 10 µM
# Time: 96 h
# Setting: first screen
# Reference: untreated
SMILES,log2 fold change
CC(N)C12CC3CC(CC(C3)C1)C2 (stereo not shown),0.3
CN(C)CCc1c[nH]c2ccc(Cn3cncn3)cc12,0.085
COc1ccc([C@@H]2Sc3ccccc3N(CCN(C)C)C(=O)[C@@H]2OC(C)=O)cc1,0.0651
O=C(O)C[C@H](O)C[C@H](O)/C=C/c1c(C2CC2)nc2ccccc2c1-c1ccc(F)cc1,-0.33
CC12CC3CC(C)(C1)CC(N)(C3)C2,0.23
COC(=O)Nc1nc2ccc(C(=O)c3ccccc3)cc2[nH]1,0.19
CC1=NS(=O)(=O)c2cc(Cl)ccc2N1,0.0187
CC(C)(C)C(O)/C=C/c1ccc2c(c1)OCO2 (stereo not shown),0.36
CN1CCC(=C2c3ccccc3CC(=O)c3sccc32)CC1,-0.24

# Set 2
# Compound: CCc1ccccc1C(=O)Nc1n[nH]c2c(C)c(F)c(C3C(C#N)=C(C)N(C)C(C)=C3C#N)cc12
# Technique: competition with immobilised ligand
# Concentration: 1 µM
target,test,remaining binding
"Hepatocyte growth factor receptor (MET, Homo sapiens, UniProt P08581)",cell-free assay,7.3%
"Serine/threonine-protein kinase PLK2 (PLK2, Homo sapiens, UniProt Q9NYY3)",cell-free assay,97%
"Protein kinase C delta type (PRKCD, Homo sapiens, UniProt Q05655)",cell-free assay,55%
"Mast/stem cell growth factor receptor Kit (KIT, Homo sapiens, UniProt P10721, L576P)",cell-free assay,91%
"Dual specificity protein kinase TTK (TTK, Homo sapiens, UniProt P33981)",binding,82%
"Non-receptor tyrosine-protein kinase TNK1 (TNK1, Homo sapiens, UniProt Q13470)",cell-free assay,100%
"Serine/threonine-protein kinase PAK 2 (PAK2, Homo sapiens, UniProt Q13177)",cell-free assay,75%
"Mitogen-activated protein kinase kinase kinase 14 (MAP3K14, Homo sapiens, UniProt Q99558)",cell-free assay,75%
"Serine/threonine-protein kinase 4 (STK4, Homo sapiens, UniProt Q13043)",cell-free assay,98%
"Serine/threonine-protein kinase Nek11 (NEK11, Homo sapiens, UniProt Q8NG66)",cell-free assay,100%
"Serine/threonine-protein kinase DCLK3 (DCLK3, Homo sapiens, UniProt Q9C098)",cell-free assay,82%

# Set 3
# SMILES: O=C(Nc1ccccc1)Nc1cccc(Oc2ccc3nccn3n2)c1
# Concentration: 1 µM
target,test,conditions,scale,remaining binding [%]
"Serine/threonine-protein kinase TBK1 (TBK1, Homo sapiens, UniProt Q9UHD2)",competitive binding panel,,reference: vehicle,90
"Serine/threonine-protein kinase BRSK2 (BRSK2, Homo sapiens, UniProt Q8IWQ3)",competitive binding panel,,reference: vehicle,100
"Inhibitor of nuclear factor kappa-B kinase subunit epsilon (IKBKE, Homo sapiens, UniProt Q14164)",competitive binding,IKK-epsilon,,100
"Phosphatidylinositol 4,5-bisphosphate 3-kinase catalytic subunit alpha isoform (PIK3CA, Homo sapiens, UniProt P42336, M1043I)",competitive binding panel,,reference: vehicle,100
"Serine/threonine-protein kinase MARK1 (MARK1, Homo sapiens, UniProt Q9P0L2)",competitive binding panel,,reference: vehicle,98
"Cyclin-dependent kinase 7 (CDK7, Homo sapiens, UniProt P50613)",competitive binding panel,,reference: vehicle,100
"Mitogen-activated protein kinase 11 (MAPK11, Homo sapiens, UniProt Q15759)",competitive binding,p38-beta,,100
"Serine/threonine-protein kinase ULK1 (ULK1, Homo sapiens, UniProt O75385)",competitive binding panel,,reference: vehicle,100
"Homeodomain-interacting protein kinase 1 (HIPK1, Homo sapiens, UniProt Q86Z02)",competitive binding panel,,reference: vehicle,100
"Epidermal growth factor receptor (EGFR, Homo sapiens, UniProt P00533)",competitive binding panel,,reference: vehicle,67
"Mitogen-activated protein kinase kinase kinase 2 (MAP3K2, Homo sapiens, UniProt Q9Y2U5)",competitive binding panel,,reference: vehicle,100

# Set 4
# SMILES: CCCC(=O)Oc1ccc2[nH]c(C(=O)c3cc4ccccc4[nH]3)cc2c1
# Observed: enzyme activity
# Mode: inhibitor
# Concentration: 0.5 µM
# Reference: control
target,remaining activity [%]
"Vascular endothelial growth factor receptor 2 (KDR, Homo sapiens, UniProt P35968)",90.4
"G protein-coupled receptor kinase 4 (GRK4, Homo sapiens, UniProt P32298)",93.7
"MAP/microtubule affinity-regulating kinase 4 (MARK4, Homo sapiens, UniProt Q96L34)",84.1
"Mitogen-activated protein kinase 1 (MAPK1, Homo sapiens, UniProt P28482)",105
"Dual specificity mitogen-activated protein kinase kinase 1 (MAP2K1, Homo sapiens, UniProt Q02750)",99.9
"Discoidin domain-containing receptor 2 (DDR2, Homo sapiens, UniProt Q16832)",89.9
"Hepatocyte growth factor receptor (MET, Homo sapiens, UniProt P08581)",103
"Serine/threonine-protein kinase tousled-like 2 (TLK2, Homo sapiens, UniProt Q86UE8)",97.1
"Serine/threonine-protein kinase DCLK2 (DCLK2, Homo sapiens, UniProt Q8N568)",89.2
"Ribosomal protein S6 kinase alpha-4 (RPS6KA4, Homo sapiens, UniProt O75676)",99.1
"Dual specificity protein kinase CLK3 (CLK3, Homo sapiens, UniProt P49761)",96.9
"Calcium/calmodulin-dependent protein kinase type 1B (PNCK, Homo sapiens, UniProt Q6P2M8)",99.4
"Cyclin-dependent kinase 9, with cyclin K (CDK9, Homo sapiens, UniProt P50750)",104
"Serine/threonine-protein kinase MRCK beta (CDC42BPB, Homo sapiens, UniProt Q9Y5S2)",99.5
"RAC-beta serine/threonine-protein kinase (AKT2, Homo sapiens, UniProt P31751)",105
